Assay results of several laboratories.
Protocols differ between the studies behind these lines. Values joined by “and” are separate records of one study, mostly repeats; a detail may differ. ± marks the error that the study gave.

SMILES | assay | system | setting | scale | measurement | value
O=C(O)Cc1ccc(O)c(O)c1 | – | human CSF | concentration not given, mean | – | CSF concentration | not detected
Cc1cc(-c2nccc3c2ccn3CC(=O)Nc2ccc(-c3cnccn3)cn2)ccn1 | – | human | 15 mg once daily, multiple ascending dose | – | subjects with Cough adverse event | 0%
C[C@@H]1OC(=O)[C@H](Cc2ccccc2)[C@H]1O | FOCUS PEARL groundwater modelling | soil | geometric mean input | – | KOC | 86 mL/g
CNC(=O)c1cc(Oc2ccc(NC(=O)Nc3cc(C(C)(C)C)nn3-c3ccc4ncccc4c3)c(F)c2)ccn1 | – | patients | oral, dose not given, cycles 1 and 2, Medium AUC subgroup | – | patients with musculoskeletal disorders | 50%
COc1ccc([C@@H](O)c2cc(-c3ncnc4cc(N5CCOCC5)ccc34)c(F)cc2Cl)nn1 | – | locally advanced rectal cancer | all dose levels overall, together with: capecitabine and radiotherapy | – | drug-related blood and lymphatic disorders | 37%
CCN1/C(=C/C(C)=O)Sc2ccc(F)cc21 | – | cynomolgus monkey | oral, 100 mg/kg, 0.5 h post-dose | – | systolic blood pressure | 114 ± 5 mmHg
COc1ccc2[nH]c([S+]([O-])Cc3ncc(C)c(OC)c3C)nc2c1 (centres unmarked) | – | healthy Chinese volunteers, CYP2C19 poor metabolizers | oral, 20 mg, enteric-coated capsules | – | t1/2 | 2.64 ± 0.89 h
CC(C)C[C@H](NC(=O)[C@H](Cc1ccccc1)NC(=O)c1cnccn1)B(O)O | – | mouse xenograft, lung | dose not given | – | organ weight | 151 mg
O=C(O)CCC(=O)O.[2H]C([2H])([2H])Oc1cc(C)c2[nH]ccc2c1CN1CC[C@@H](C2CC2)C[C@H]1c1ccc(C(=O)O)cc1 | multiple ascending dose | healthy Chinese subjects | 100 mg twice daily | – | subjects with TEAE Acne | 0%
CCc1c(-c2ccccc2)c(-c2ccccc2)nn1-c1ccccc1-c1cccc(OCC(=O)O)c1 | – | Sprague-Dawley rat, -Kidney | oral, 10 mg/kg, 1 h | – | tissue concentration | 3010 ng/g and 4470 ng/g
CC(C)n1c(Nc2cccnc2)nc2cnc(Nc3ccc(N4CCN(C)CC4)cc3)nc21 | – | healthy male humans | oral, dose not given, drug interaction study, all arms | – | incidence of hypertriglyceridemia TEAE | 11.9%
Cc1cc(Nc2cc3ncccc3c(N[C@@H]3C[C@H]4CC[C@@H](C3)N4CCC#N)n2)n[nH]1 | – | healthy human | oral, 1000 mg single dose, 2 weeks | – | subjects with epistaxis | 0%
NC1(C(=O)N[C@@H](CCO)c2ccc(Cl)cc2)CCN(c2nc[nH]c3nccc2-3)CC1 | – | metastatic CRPC patients | 320 mg b.i.d., grade 3 to 4, treatment-related, together with: enzalutamide 160 mg daily | – | incidence of Dyspepsia | 0%
CNC(=O)c1ccc(-c2cnc3ncc(Cc4ccc5ncccc5c4)n3n2)cc1F | – | other cancer patients | oral, 600 mg twice daily, all grades RP2D expansion | – | AST increased incidence | 11%
C[C@@H](Nc1cc(F)cc(F)c1)c1cc(C(=O)N(C)C)cc2c(=O)cc(N3CCOCC3)oc12 | item: autoimmune colitis | patients with advanced solid tumours | oral, dose not given, dose finding phase I | – | treatment-related serious adverse events | 0%
OC[C@H]1O[C@@H](c2ccc(F)c(Cc3cc4ccccc4s3)c2)[C@H](O)[C@@H](O)[C@@H]1O | – | Japanese patients, type 1 diabetes | oral, 25 mg/day, onset day 11 | relative to: patients | hypoglycaemia-related adverse event | 2%
CC(=O)c1cc(C(=O)N[C@@H](C)Cn2ccc(-c3ccc(C#N)c(Cl)c3)n2)[nH]n1 | – | human | – | – | intravenous clearance | 1.8 L/h
CSc1cc(C)nc(SC)c1NC(=O)CN1CCN(CCSc2nc3ccccc3[nH]2)CC1.Cl | – | mouse, nasal olfactory epithelium | intranasal, 10 µL of 3.24 mg/mL in 0.01 N HCl daily, 7 days | – | olfactory epithelium thickness | 50.4 and 41.3 and 48.6 and 50.8
COc1cc2nccc(Oc3ccc(NC(=O)c4cc5c(n(-c6ccccc6)c4=O)CCCC5=O)nc3)c2cc1OC | – | relapsed or refractory AML | oral, 6 mg once daily | – | grade ≥3 Sepsis patients | 33.3%

SMILES | assay | system | setting | scale | measurement | value
N#Cc1ccc2c(c1)[C@H]1CCCN(C(=O)c3ccc4[nH]cnc4c3)[C@H]1C2 | – | human, female | 240 mg, day 15 | – | DHEA-S level | 5 µmol/L
CC1=NN(c2ccccc2)C(=O)C1 | – | rat Sprague-Dawley pups PN4, right cerebral cortex | intraperitoneal, 30 mg/kg, 1 h | – | tissue concentration | 265 ± 57 ng/mL
Cc1ncnc2c1ccn2[C@@H]1C[C@H](Oc2cc(C(F)F)c(F)c3c2CNCC3)[C@@H](O)[C@H]1O | – | human, plasma | 0.5 mg once daily | – | AUC(tau) | 40.2 ng·h/mL
CNC(=O)c1ccc(-c2cnc3ncc(Cc4ccc5ncccc5c4)n3n2)cc1F | – | Japanese patients | oral, 400 mg, grade 3/4 | – | Urticaria treatment discontinuation | 0%
Cc1nc2ccc(OCc3ccc(C(F)(F)F)cc3)cc2[nH]1 | – | Balb/c mice, male, plasma | intravenous, 1 mg/kg | – | terminal elimination rate constant | 3.33e-05 ± 2.78e-05 s⁻¹
O=C(Nc1nc2cccc(-c3ccc(CN4CCS(=O)(=O)CC4)cc3)n2n1)C1CC1 | item: pyrexia | rheumatoid arthritis patients | oral, 30 mg once daily, 4 weeks, any relatedness | – | treatment-emergent adverse events | 0%
O=C(COc1ccc(Cl)cc1)NC12CC(c3nnc([C@H]4C[C@@H](OC(F)(F)F)C4)o3)(C1)C2 | item: Fatigue | human | 100 mg once daily, 28 (unit not given) | – | adverse event incidence | 40%
CS(=O)(=O)c1ccc([C@@H](O)[C@@H](CF)NC(=O)C(Cl)Cl)cc1 | – | Arbor Acres chickens, plasma | oral, 20 mg/kg, together with: quercetin 40 mg/kg pretreatment | – | MRT(0-inf) | 3.87 ± 0.17 h
CCCCC1=NC2(CCCC2)C(=O)N1Cc1ccc(-c2ccccc2S(=O)(=O)Nc2noc(C)c2C)c(COCC)c1 | – | healthy adult volunteers, plasma | oral, 200 mg, single dose, fasted, crushed tablet | – | Cmax | 4630 ng/mL
Cc1ccc(O)c(-n2nc3ccccc3n2)c1 | exposure assessment | human, age 2-3 years | concentration not given, spray sunscreen, 95th percentile | – | daily dermal uptake, percentile | 3980 ng/kg body weight/day
Cc1ccc([C@@H]2O[C@H](CO)[C@@H](O)[C@H](O)[C@H]2O)cc1Cc1ccc(-c2ccc(F)cc2)s1 | – | Japanese type 2 diabetes patients | 400 mg, day 4, 24 h urine collection | relative to: baseline | urinary potassium excretion change | -4.09 mEq
Cn1cc([C@H]2C[C@H]3CSC(N)=N[C@@]3(c3ccc(F)cc3F)CO2)cn1 | – | male 129/SVE mouse, CSF | subcutaneous, 50 mg/kg, 9 h | – | CSF concentration | 439 nM
O=C(O)c1ccc(O)c(O)c1 | – | human CSF | concentration not given, mean | – | CSF concentration | not detected
CCO[C@H]1CCN(Cc2c(OC)cc(C)c3[nH]ccc23)[C@H](c2ccc(C(=O)O)cc2)C1 | – | PNH patients, active haemolysis | oral, 100 mg, 8 weeks, treatment | – | incidence of haematuria | 0%
CO[C@H]1/C=C/O[C@@]2(C)Oc3c(C)c(O)c4c(O)c(c(/C=N/N5CCN(C)CC5)c(O)c4c3C2=O)NC(=O)/C(C)=C\C=C\[C@H](C)[C@H](O)[C@@H](C)[C@@H](O)[C@@H](C)[C@H](OC(C)=O)[C@@H]1C | – | healthy human volunteers | oral, 600 mg, itraconazole cohort, together with: gepotidacin 1500 mg | – | incidence of AST increased | 0%
O=C(N[C@H](Cc1c[nH]c2ccccc12)C(=O)Nc1ccncc1)c1ccc(-c2cc(C(F)(F)F)ccc2F)cc1F | – | Swiss Webster mouse, female, plasma | oral, 50 mg/kg, 8 h, 20% Kolliphor vehicle | – | concentration | 5.6 µM
NC(N)=NCCC[C@@H](N)C(=O)N[C@@H](CCCN=C(N)N)C(=O)N1CCC[C@H]1C(=O)N1C[C@H](O)C[C@H]1C(=O)NCC(=O)N[C@@H](Cc1cccs1)C(=O)N[C@@H](CO)C(=O)N1Cc2ccccc2C[C@@H]1C(=O)N1[C@H](C(=O)N[C@@H](CCCN=C(N)N)C(=O)O)C[C@@H]2CCCC[C@@H]21 | popPK base model typical value | human | subcutaneous, dose not given, reference weight 70 kg | – | peripheral volume (Vp/F) | 1.75 L
CCc1cc(C(=O)NC)c2nccc(N3CCc4c(cc(Cn5ccnc5)cc4-c4cn(C)nc4C(F)(F)F)C3=O)c2c1 | – | Sprague Dawley rats | oral, 50 mg/kg once daily, 7 days | – | serum albumin | 32.4 ± 0.7 g/L
CC1(C)S[C@@H]2[C@H](NC(=O)[C@H](N)c3ccc(O)cc3)C(=O)N2[C@H]1C(=O)O | – | male Hartley guinea pigs, anaesthetized | intravenous, 10 mg/kg group, baseline before infusion | – | heart rate | 217 ± 0.4 beats/min

SMILES | assay | system | setting | scale | measurement | value
CC(C)(C(=O)N1CCOc2c(C#N)cncc2C1)C(F)F | – | human, both sexes | oral, 40 mg single dose | – | subjects with keratitis TEAE | 0%
FC(F)(F)c1ccc(CNc2ccc(Cc3c[nH]c4ncc(Cl)cc34)cn2)cn1 | item: face oedema | human, advanced solid tumours, non-TGCT cohort | oral, 1000 mg/day, grade 3 or higher | – | treatment-related adverse events | 0%
CNc1ccc(-c2nc3ccc(O)cc3s2)cc1 [carbon-11 labelled] | ex vivo biodistribution | APP/PS1 Alzheimer mice, brain stem | intravenous, 30 min | – | uptake | 0.241 ± 0.13 SUV
C=CCN1CC(=O)N2[C@@H](Cc3ccc(O)cc3F)C(=O)N(Cc3cccc(N4CC(N5CCN(CC)CC5)C4)n3)C[C@@H]2N1C(=O)NCc1ccccc1 | – | advanced solid tumour patients | oral, 80 mg twice daily, any grade, dose-escalation | – | treatment-related decreased appetite | 0%
CC[C@H](C)[C@H](NC(=O)[C@H](Cc1ccccc1)NC(=O)[C@H](CCC(=O)O)NC(=O)[C@H](CCCCNC(=O)COCCOCCNC(=O)COCCOCCNC(=O)CC[C@H](NC(=O)CCCCCCCCCCCCCCCCC(=O)O)C(=O)O)NC(=O)[C@H](C)NC(=O)[C@H](C)NC(=O)[C@H](CCC(N)=O)NC(=O)CNC(=O)[C@H](CCC(=O)O)NC(=O)[C@H](CC(C)C)NC(=O)[C@H](Cc1ccc(O)cc1)NC(=O)[C@H](CO)NC(=O)[C@H](CO)NC(=O)[C@@H](NC(=O)[C@H](CC(=O)O)NC(=O)[C@H](CO)NC(=O)[C@@H](NC(=O)[C@H](Cc1ccccc1)NC(=O)[C@@H](NC(=O)CNC(=O)[C@H](CCC(=O)O)NC(=O)C(C)(C)NC(=O)[C@@H](N)Cc1cnc[nH]1)[C@@H](C)O)[C@@H](C)O)C(C)C)C(=O)N[C@@H](C)C(=O)N[C@@H](Cc1c[nH]c2ccccc12)C(=O)N[C@@H](CC(C)C)C(=O)N[C@H](C(=O)N[C@@H](CCCNC(=N)N)C(=O)NCC(=O)N[C@@H](CCCNC(=N)N)C(=O)NCC(=O)O)C(C)C | 12-lead Holter ECG | healthy humans | subcutaneous, 1.5 mg once weekly, 24 h, steady state | relative to: placebo | QT change from baseline | -21.9 ms
COc1ncc(-c2nc3c(n2C(C)C)[C@H](c2ccc(Cl)cc2)N(c2cc(Cl)cn(C)c2=O)C3=O)c(OC)n1 | LC-MS/MS, noncompartmental | human, plasma | oral, 200 mg, cycle 1 day 8, high-dose, geometric mean | – | AUC(0-last) | 4890 ng·h/mL
CC(C)NCC(O)COc1cccc2ccccc12 (centres unmarked) | – | male Hartley guinea pigs, anaesthetized | intravenous, 1 mg/kg over 10 min, after infusion | – | heart rate | 188 ± 0.6 beats/min
C=CC(=O)Nc1cc(Nc2nccc(-c3cn(C)c4ccccc34)n2)c(OC)cc1N(C)CCN(C)C | storage stability | human plasma | 24 h, -80 °C, high QC level | – | recovery | 95.6%
O=C(CCCN1CCC(O)(c2ccc(Cl)cc2)CC1)c1ccc(F)cc1 | – | male Hartley guinea pigs, anaesthetized | intravenous, 0.1 mg/kg group, baseline before infusion | – | heart rate | 231 ± 0.4 beats/min
NCCCCNCc1ccc(CNC(=O)c2csc3nc[nH]c(=O)c23)cc1 | haemolysis | human red blood cells | 1 h, 37 °C | – | EC50 | > 100 µM
C=CC(=O)N1CCC(Oc2cc3c(Nc4ccc(Cl)c(Cl)c4F)ncnc3cc2OC)CC1 | – | Sprague-Dawley rat, male, plasma | oral, 2 mg/kg, together with: vehicle pretreatment | – | MRT(0-t) | 4.9 ± 0.62 h
Cc1ccc(N(C)C(=O)/C=C/c2ccco2)cc1 | cold plate test | mice | oral, 30 mg/kg single, 0 min | – | licking latency | 18.8 ± 0.5 s
O=C1OC[C@H](Cc2cccc(O)c2)[C@H]1Cc1cccc(O)c1 | – | human CSF | concentration not given, mean | – | CSF concentration | not detected
CN(C(=O)n1cnc(-c2cccnc2)c1)C1CCCCC1 | – | Wistar rat, midbrain | oral, 10 mg/kg/day of BIA 10-2474, 72 h, repeated 5 days | – | concentration | 8.9 ± 0.2 ng/g
Cc1ccc(Sc2ccccc2N2CCNCC2)c(C)c1 | item: thermal burn | healthy adult women | oral, 5 mg daily, 12 days | – | participants with TEAE | 0%
CCOc1c([C@H](C)n2nc(C)c3c(N)ncnc32)cc(Cl)c(F)c1[C@@H]1CNC(=O)C1 | – | patients, monotherapy | oral, 5 mg once daily, cycle 1 day 1 | – | Tmax median | 2 h
COc1ccc(C(=O)O)c(O)c1 | – | human CSF | concentration not given, mean | – | CSF concentration | not detected
[18F]c1ccc(-c2ccc3c(c2)[nH]c2ccncc23)cn1 | ex vivo biodistribution | normal B6SJL mice, adipose | intravenous, 30 min | – | uptake | 0.299 ± 0.344 SUV
